Published values pooled from the literature.
“And” joins repeats or separate records; there may be more than shown. ± marks the error that the study gave.

SMILES	assay	test system	setting	scale	endpoint	value
N=C(N)NCCC[C@@H]1NC(=O)[C@H](Cc2c[nH]c3ccccc23)NC(=O)[C@@H](CC2CCCCC2)NC(=O)[C@@H]2CCCN2C(=O)[C@@H](NC(=O)CCc2ccccc2)CCCNC1=O		C57BL/6J mice, spinal cord	intraperitoneal, 1 mg/kg, two-compartment model		apparent distributional clearance	2.59 ng/(min·ng/g)
O=c1nc(NO)ccn1[C@@H]1O[C@H](CO)[C@@H](O)[C@H]1O	RT-PCR, measured: CYP2C11	normal rat, liver	oral, 80 mg/kg twice daily, 5 days	relative to: untreated rats	mRNA level	0.1 fold
COCCOCCOCCOCCC(=O)NCc1cc(CNC(=O)CCOCCOCCOCCOC)cc(-c2cc3cc4nc(c(-c5ccc(CCC(=O)O)cc5)c5[nH]c(cc6nc(c(OC)c2[nH]3)CC6(C)C)cc5-c2cc(CNC(=O)CCOCCOCCOCCOC)cc(CNC(=O)CCOCCOCCOCCOC)c2)CC4(C)C)c1		water with 5% DMF	room temperature		internal conversion yield	0.55
CC(C)Cn1c(SCC(=O)N2CCc3ccccc3C2)nc2cc(Cl)ccc2c1=O		mouse C57BL/6J male, plasma	intraperitoneal, 10 mg/kg	relative to: plasma Cmax over CRFBP-CRF2 IC50	Cmax over IC50	1.7 fold
C=CC(=O)Nc1cc(Nc2nccc(-c3cn(C4CC4)c4ccccc34)n2)c(OC)cc1NC	LC-RAM/HRMS	human male, plasma	oral, 110 mg, 48 h	relative to: total radioactivity	share of radioactivity	25%
CC1=C(/C=C/C(=O)N2CCN(C(N)=O)CC2)C(C)(C)CCC1		female mouse, plasma	oral, 40 mg/kg, single dose		half-life	1.21 h
Cn1c(=O)oc2ccc(-c3ccc(CC(C#N)NC(=O)C4CNCCCO4)c(F)c3)cc21 (stereo not drawn)	measured: blood triglycerides increased	human volunteers	oral, dose not given		treatment-emergent adverse event incidence	37%
O=C(CCc1ccc(CNC(C(=O)OC2CCCC2)C2CCCCC2)cn1)NO (stereo not drawn)		human, plasma	oral, 60 mg single dose, geometric mean		AUC(0-t)	244 ng·h/mL
CC(C)c1cnc(-c2cc(Cl)ccc2F)cc1Nc1ccncc1C(=O)NC(CO)CO	measured: Rash	solid tumour patients	oral, dose not given, phase I monotherapy		treatment-related adverse events	7.1%
Cc1cccc(O[C@H]2CCC[C@@H](C(C)CNCc3ccncc3)C2)c1 (relative stereo)		female C57BL/6J mice, plasma	intravenous, 3 mg/kg		Clast	1.02 ng/mL
CN(C(=O)c1ccn2ncc(-c3ccc(C(N)=O)cc3)c2c1)c1ccc(C#N)cn1		CD-1 mouse, Wistar rat, rhesus monkey, plasma	intravenous		Vss	1.12 L/kg
COC[C@@H](CC(C)C)NC(=O)c1ccc(CO)c(CO)c1	LC-MS	Sprague-Dawley rat, both sexes, rat liver microsomes	10 µM of parent drug, 20 min, pH 7.4, added: NADPH	relative to: parent drug at time zero	metabolite peak area	0.1%
Cc1cc(O)cc(O)c1C(=O)c1c2c3c(c(O)cc(C)c3oc1=O)C(=O)c1c(O)cc(O)cc1-2		mouse, bone marrow	intraperitoneal, 400 mg/kg, 30 h		micronucleated PCEs per 1000 PCEs	16 ± 2.16
O=C([O-])CN1CCN(CC(=O)[O-])CCN(CC(=O)NCC2CCC(C(=O)NC(Cc3ccc4ccccc4c3)C(=O)NCCCCC(NC(=O)NC(CCC(=O)O)C(=O)O)C(=O)O)CC2)CCN(CC(=O)[O-])CC1.[44Sc+3] (stereo not drawn)	PET/CT dosimetry, OLINDA/EXM	human, salivary glands			residence time	0.026 h and 0.021 h and 0.01 h
CCCC[C@H](NC(=O)CNC(=O)CNC(=O)CN1CCN(CC(=O)O)CCN(CC(=O)O)CCN(CC(=O)O)CC1)C(=O)N[C@H]1Cc2cn(nn2)CCCC[C@@H](C(N)=O)NC(=O)[C@H](Cc2c[nH]c3ccccc23)NC(=O)[C@H](CCCNC(=N)N)NC(=O)[C@@H](Cc2ccccc2)NC(=O)[C@H](Cc2c[nH]cn2)NC1=O		SCID hairless mouse, female, urine and feces	intravenous, 7.5 MBq, 90 min, 68Ga labelled		excretion	78.8 ± 8.6%
C=CC(=O)Nc1cc(Nc2nccc(-c3cn(C4CC4)c4ccccc34)n2)c(OC)cc1N(C)CCNC	radio-HPLC	human male, feces	oral, 110 mg, 96 to 240 h, sample holds 16.61% dose	relative to: sample radioactivity	share of radioactivity	22.9%
CC(C)(O)c1ncc([S@](N)(=O)=NC(=O)Nc2c3c(cc4c2CCC4)CCC3)s1		healthy human volunteers, plasma	oral, 600 mg single dose, fasted, spray-dried dispersion		dose-normalised Cmax	98.5 ng/mL/mg
CC(=O)N[C@H](CCCCN)C(=O)N[C@H](CC(C)C)C(=O)N[C@H](CCCCN)C(=O)N[C@H](CO)C(=O)N[C@H](CC(C)C)C(=O)N[C@H](CC(C)C)C(=O)N[C@H](CCCCN)C(=O)N[C@@H](C(=O)N[C@H](CC(C)C)C(=O)N[C@H](CO)C(=O)N[C@H](CCCCN)C(=O)N[C@H](C)C(=O)N[C@H](CCCCN)C(=O)N[C@H](CCCCN)C(=O)N[C@H](CCCCN)C(=O)N[C@H](CCCCN)C(=O)N[C@H](CC(C)C)C(=O)N[C@H](CCCCN)C(=O)N[C@@H](C(=O)N[C@H](CC(C)C)C(=O)N[C@H](CC(C)C)C(=O)N[C@H](CCCCN)C(=O)N[C@H](C)C(=O)N[C@H](CC(C)C)C(=O)N[C@H](CO)C(=O)N[C@H](CCCCN)C(N)=O)[C@H](C)O)[C@H](C)O	circular dichroism	benign aqueous buffer	pH 7.0, 5 °C, at 222 nm	negative is more helical	mean residue molar ellipticity	3550 deg cm2/dmol
C[N+](C)(C)CC(CC(=O)[O-])OC(=O)CCC(=O)Nc1ccn([C@@H]2O[C@H](CO)[C@@H](O)C2(F)F)c(=O)n1 (stereo partly drawn)		THU-treated rat plasma	3200.00 ng/mL, 1 h, 20 °C, bench-top stability, high QC		measured concentration	3170 ± 150 ng/mL
Nc1ncnc2c1nc(-n1nnc3c1CCC1C(CO)C1CC3)n2C1OC(CO)C(O)C1O (mixture of isomers)	fluorescence lifetime	methanol			fractional contribution τ3	0.07%
[11CH3]Oc1ccc(-c2nc(CSc3nc(N)c(C#N)c(-c4ccc5c(c4)OCO5)c3C#N)cs2)cc1	PET	male Wistar rat, brain	baseline		whole brain uptake	0.28 ± 0.03 g/mL
Cc1cnc(Nc2ccc(OCCOc3ccc(/N=N/c4ccc(C(=O)NCCC(=O)O)cc4)cc3C(=O)O)cc2)nc1Nc1cccc(S(=O)(=O)NC(C)(C)C)c1		C57BL/6 mouse, female, plasma	oral, 10 mg/kg, 0.5 to 24 h		concentration	< 2 ng/mL
Cc1[nH]c(/C=C2\C(=O)Nc3ccc(F)cc32)c(C)c1NC(=O)CCN1CCN(C)CC1		dog plasma	40 ng/mL nominal, 24 h, 25 °C, processed samples at room temperature		measured concentration	39.7 ng/mL
CC[C@H](C)[C@@H]1NC(=O)[C@H](CCCNC(=N)N)NC(=O)[C@H](CC(=O)O)NC(=O)[C@H](CC(C)C)NC(=O)[C@H](CCCCN)NC(=O)[C@H](CC(C)C)NC(=O)CNC(=O)[C@H](Cc2ccccc2)NC(=O)[C@@H](NC(=O)CNC(=O)[C@H](CCCCN)NC(=O)[C@H](CO)NC(=O)[C@H](CC(C)C)NC(=O)CNC(=O)[C@H](CCCCN)NC(=O)[C@H](CCCCN)NC(=O)[C@H](CC(N)=O)NC(=O)[C@H](C)NC(=O)CNC(=O)[C@H](CCCCN)NC(=O)[C@H](Cc2ccc(O)cc2)NC(=O)[C@H](CCCCN)NC(=O)[C@H](CCCNC(=N)N)NC(=O)[C@H](C)NC(=O)[C@H](CC(N)=O)NC(=O)[C@@H]2CCCN2C(=O)[C@H](Cc2c[nH]cn2)NC(=O)[C@H](CCC(=O)O)NC(=O)[C@H](CCC(N)=O)NC(=O)[C@@H](N)CC(C)C)CSSC[C@@H](C(=O)O)NC(=O)CNC(=O)[C@H](CC(C)C)NC(=O)CNC(=O)[C@H](CO)NC(=O)[C@H](CCSC)NC(=O)[C@H](CO)NC(=O)CNC1=O		healthy adult men, plasma	subcutaneous, 150 µg CNP/kg, single dose, added: TransCon CNP prodrug		AUC extrapolated percentage	10.5%
CCc1cc(Nc2nc(-c3ccc(-n4cnc(C)c4)c(F)c3)cs2)c(C)cc1C		human, plasma	oral, 200 mg, day 1, multiple dose, geometric mean		apparent clearance (CL/F)	56700 mL/h
CCCC[C@H](NC(=O)[C@H](CC(C)C)N(C)C(=O)CNC(=O)[C@@H](NC(=O)[C@H](Cc1ccccc1)NC(=O)[C@H](CCCCN)NC(=O)[C@@H](N)CC(=O)O)C(C)C)C(N)=O		anaesthetised Sinclair minipigs	IV, 0.3 µg/kg	relative to: baseline	heart rate change	4.2 ± 5.16%
CCCCCCCCCCCCCCCCCC(=O)Nc1ccn(C2OC(CO)C(O)C2(F)F)c(=O)n1 (stereo not drawn)		mouse	iv bolus, 30 mg/kg gemcitabine equivalent		Vss	23.9 ± 1.6 mL
COc1cc(OC)cc(C2=C3C(C)=C(I)C(C)=[N+]3[B-](F)(F)n3c(/C=C/c4c[nH]c5ccccc45)c(I)c(C)c32)c1		DMSO			Stokes shift	930 cm⁻¹
CC(C)C[C@@H](N)C(=O)N[C@H](CC(=O)O)C(=O)N[C@@H](C(=O)N[C@H](Cc1ccccc1)C(=O)N[C@H](CC(C)C)C(=O)N[C@H](Cc1ccc(O)cc1)C(=O)N[C@H](CO)C(=O)N[C@H](CCC(=O)O)C(=O)O)C(C)C		4T1 and MC-38 tumour mice	dose not given		haemoglobin level	no effect
[C-]#[O+].[C-]#[O+].[C-]#[O+].[C-]#[O+].[C-]#[O+].[C-]#[O+].[Cl-].[Cl-].[Re+].[Re+].c1cnc(-c2ncccn2)nc1	cyclic voltammetry	0.1 M Na2SO4, gold electrode	scan rate 50 mV/s		redox potential	-0.621 V vs Ag/AgCl

Repeated from above:
SMILES	assay	test system	setting	scale	endpoint	value
Nc1ncnc2c1nc(-n1nnc3c1CCC1C(CO)C1CC3)n2C1OC(CO)C(O)C1O (mixture of isomers)	fluorescence lifetime	methanol			fractional contribution τ3	0.07%
Cc1cc(O)cc(O)c1C(=O)c1c2c3c(c(O)cc(C)c3oc1=O)C(=O)c1c(O)cc(O)cc1-2		mouse, bone marrow	intraperitoneal, 400 mg/kg, 30 h		micronucleated PCEs per 1000 PCEs	16 ± 2.16
CC(C)Cn1c(SCC(=O)N2CCc3ccccc3C2)nc2cc(Cl)ccc2c1=O		mouse C57BL/6J male, plasma	intraperitoneal, 10 mg/kg	relative to: plasma Cmax over CRFBP-CRF2 IC50	Cmax over IC50	1.7 fold
CC1=C(/C=C/C(=O)N2CCN(C(N)=O)CC2)C(C)(C)CCC1		female mouse, plasma	oral, 40 mg/kg, single dose		half-life	1.21 h
